Measured values collected from several papers.
Lines come from different studies, so protocols differ. “And” joins repeats or separate records; there may be more than shown.
DRD3: D(3) dopamine receptor (DRD3, Homo sapiens, UniProt P35462)
Chain of UniProt P35462 (whole entry, looked up): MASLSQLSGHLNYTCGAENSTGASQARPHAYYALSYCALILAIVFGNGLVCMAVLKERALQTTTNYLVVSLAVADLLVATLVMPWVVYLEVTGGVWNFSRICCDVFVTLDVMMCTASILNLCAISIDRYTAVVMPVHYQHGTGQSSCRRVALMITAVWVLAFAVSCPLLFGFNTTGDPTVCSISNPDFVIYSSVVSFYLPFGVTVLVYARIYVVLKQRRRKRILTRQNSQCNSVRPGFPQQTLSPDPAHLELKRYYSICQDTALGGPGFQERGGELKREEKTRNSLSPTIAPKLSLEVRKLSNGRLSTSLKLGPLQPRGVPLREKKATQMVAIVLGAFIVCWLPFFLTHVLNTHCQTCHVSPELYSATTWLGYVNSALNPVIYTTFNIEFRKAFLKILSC
CTSL: Procathepsin L (CTSL, Homo sapiens, UniProt P07711)
Chain of UniProt P07711 (whole entry, looked up): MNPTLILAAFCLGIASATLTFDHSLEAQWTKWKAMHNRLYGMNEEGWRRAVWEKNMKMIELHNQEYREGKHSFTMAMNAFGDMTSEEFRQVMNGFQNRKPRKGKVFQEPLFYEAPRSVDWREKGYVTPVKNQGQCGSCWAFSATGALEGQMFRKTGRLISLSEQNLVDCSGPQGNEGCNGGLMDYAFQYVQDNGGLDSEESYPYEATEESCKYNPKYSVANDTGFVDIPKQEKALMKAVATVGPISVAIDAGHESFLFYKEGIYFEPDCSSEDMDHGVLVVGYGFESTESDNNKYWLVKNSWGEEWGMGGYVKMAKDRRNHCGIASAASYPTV
KIT V559D/V654A: Mast/stem cell growth factor receptor Kit (KIT, Homo sapiens, UniProt P10721, V559D/V654A)
Chain of UniProt P10721 (whole entry, unmodified, looked up): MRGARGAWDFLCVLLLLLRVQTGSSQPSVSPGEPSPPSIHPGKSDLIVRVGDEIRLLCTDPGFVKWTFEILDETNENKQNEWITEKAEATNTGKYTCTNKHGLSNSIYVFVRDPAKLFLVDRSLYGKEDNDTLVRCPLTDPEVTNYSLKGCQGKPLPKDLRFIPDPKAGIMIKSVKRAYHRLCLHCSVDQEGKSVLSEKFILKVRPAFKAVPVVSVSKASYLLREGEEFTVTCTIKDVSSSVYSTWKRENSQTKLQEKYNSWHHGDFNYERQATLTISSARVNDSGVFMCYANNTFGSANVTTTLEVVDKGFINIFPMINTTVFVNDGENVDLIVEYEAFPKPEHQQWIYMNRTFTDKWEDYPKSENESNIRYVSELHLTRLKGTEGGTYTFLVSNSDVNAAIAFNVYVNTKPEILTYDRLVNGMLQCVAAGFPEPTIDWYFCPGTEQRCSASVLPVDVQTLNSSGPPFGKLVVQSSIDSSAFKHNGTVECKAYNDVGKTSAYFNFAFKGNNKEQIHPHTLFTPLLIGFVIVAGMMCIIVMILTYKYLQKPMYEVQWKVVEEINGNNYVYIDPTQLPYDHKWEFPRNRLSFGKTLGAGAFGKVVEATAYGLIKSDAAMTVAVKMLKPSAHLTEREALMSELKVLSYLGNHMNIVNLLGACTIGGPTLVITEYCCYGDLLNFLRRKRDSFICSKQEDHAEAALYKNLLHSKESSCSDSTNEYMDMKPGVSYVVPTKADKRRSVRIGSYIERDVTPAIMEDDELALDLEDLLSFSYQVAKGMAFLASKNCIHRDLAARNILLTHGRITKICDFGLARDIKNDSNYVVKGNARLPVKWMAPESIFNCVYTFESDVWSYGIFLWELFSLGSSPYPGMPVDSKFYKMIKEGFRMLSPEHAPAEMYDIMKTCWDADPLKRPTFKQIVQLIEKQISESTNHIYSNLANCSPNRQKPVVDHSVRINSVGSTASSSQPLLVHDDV
Chain of UniProt O75116 (whole entry, looked up): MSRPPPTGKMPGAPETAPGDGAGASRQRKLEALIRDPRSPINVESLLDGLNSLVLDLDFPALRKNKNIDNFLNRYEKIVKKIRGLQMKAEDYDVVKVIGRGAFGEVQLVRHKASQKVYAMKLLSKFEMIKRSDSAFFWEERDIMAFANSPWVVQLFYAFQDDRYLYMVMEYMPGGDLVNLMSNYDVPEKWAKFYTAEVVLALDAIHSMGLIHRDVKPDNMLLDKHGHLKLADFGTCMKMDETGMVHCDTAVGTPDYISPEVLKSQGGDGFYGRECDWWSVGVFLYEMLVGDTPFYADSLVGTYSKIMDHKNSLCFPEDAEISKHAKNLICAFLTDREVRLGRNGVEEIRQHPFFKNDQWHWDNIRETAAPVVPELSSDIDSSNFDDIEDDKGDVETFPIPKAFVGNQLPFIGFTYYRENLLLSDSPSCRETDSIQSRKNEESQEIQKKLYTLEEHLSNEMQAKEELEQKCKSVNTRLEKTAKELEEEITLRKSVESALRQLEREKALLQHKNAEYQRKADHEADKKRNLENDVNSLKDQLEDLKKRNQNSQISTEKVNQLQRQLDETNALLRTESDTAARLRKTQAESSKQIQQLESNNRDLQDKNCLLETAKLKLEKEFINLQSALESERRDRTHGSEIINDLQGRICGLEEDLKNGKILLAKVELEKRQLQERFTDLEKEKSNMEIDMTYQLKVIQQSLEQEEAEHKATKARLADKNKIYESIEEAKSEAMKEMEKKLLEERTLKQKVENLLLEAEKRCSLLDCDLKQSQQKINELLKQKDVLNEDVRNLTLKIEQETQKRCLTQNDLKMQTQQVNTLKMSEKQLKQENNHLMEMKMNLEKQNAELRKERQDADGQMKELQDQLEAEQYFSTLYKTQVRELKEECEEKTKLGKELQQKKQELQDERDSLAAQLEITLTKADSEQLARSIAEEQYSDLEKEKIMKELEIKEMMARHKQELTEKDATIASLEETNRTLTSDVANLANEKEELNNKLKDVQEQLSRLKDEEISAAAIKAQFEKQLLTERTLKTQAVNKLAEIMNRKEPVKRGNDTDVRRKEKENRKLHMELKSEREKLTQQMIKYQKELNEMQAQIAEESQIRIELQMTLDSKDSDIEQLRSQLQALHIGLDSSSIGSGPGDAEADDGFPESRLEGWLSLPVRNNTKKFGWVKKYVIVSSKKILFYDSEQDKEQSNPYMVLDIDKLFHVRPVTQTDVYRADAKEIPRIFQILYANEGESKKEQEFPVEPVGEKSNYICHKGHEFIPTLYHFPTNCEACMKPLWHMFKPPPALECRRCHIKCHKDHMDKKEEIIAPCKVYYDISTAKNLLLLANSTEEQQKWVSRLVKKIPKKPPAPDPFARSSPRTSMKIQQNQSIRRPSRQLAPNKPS
Chain of UniProt P34947 (whole entry, looked up): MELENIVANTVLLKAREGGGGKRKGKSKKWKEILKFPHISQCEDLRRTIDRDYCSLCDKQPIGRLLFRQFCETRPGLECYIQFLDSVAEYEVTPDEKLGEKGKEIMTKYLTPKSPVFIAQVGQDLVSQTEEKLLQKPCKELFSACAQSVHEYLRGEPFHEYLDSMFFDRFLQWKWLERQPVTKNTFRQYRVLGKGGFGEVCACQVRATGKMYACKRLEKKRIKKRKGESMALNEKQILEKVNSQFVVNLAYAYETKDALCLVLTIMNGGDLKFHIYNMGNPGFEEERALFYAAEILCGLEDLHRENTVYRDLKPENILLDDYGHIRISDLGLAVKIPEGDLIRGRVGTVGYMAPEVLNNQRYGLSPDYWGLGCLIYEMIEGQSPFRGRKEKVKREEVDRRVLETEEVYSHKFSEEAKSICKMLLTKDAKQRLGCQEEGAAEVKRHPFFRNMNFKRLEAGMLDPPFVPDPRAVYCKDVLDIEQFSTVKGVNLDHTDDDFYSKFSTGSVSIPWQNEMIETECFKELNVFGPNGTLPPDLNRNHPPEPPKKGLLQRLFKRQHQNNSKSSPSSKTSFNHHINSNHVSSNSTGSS
Chain of UniProt P00519 (whole entry, unmodified, looked up): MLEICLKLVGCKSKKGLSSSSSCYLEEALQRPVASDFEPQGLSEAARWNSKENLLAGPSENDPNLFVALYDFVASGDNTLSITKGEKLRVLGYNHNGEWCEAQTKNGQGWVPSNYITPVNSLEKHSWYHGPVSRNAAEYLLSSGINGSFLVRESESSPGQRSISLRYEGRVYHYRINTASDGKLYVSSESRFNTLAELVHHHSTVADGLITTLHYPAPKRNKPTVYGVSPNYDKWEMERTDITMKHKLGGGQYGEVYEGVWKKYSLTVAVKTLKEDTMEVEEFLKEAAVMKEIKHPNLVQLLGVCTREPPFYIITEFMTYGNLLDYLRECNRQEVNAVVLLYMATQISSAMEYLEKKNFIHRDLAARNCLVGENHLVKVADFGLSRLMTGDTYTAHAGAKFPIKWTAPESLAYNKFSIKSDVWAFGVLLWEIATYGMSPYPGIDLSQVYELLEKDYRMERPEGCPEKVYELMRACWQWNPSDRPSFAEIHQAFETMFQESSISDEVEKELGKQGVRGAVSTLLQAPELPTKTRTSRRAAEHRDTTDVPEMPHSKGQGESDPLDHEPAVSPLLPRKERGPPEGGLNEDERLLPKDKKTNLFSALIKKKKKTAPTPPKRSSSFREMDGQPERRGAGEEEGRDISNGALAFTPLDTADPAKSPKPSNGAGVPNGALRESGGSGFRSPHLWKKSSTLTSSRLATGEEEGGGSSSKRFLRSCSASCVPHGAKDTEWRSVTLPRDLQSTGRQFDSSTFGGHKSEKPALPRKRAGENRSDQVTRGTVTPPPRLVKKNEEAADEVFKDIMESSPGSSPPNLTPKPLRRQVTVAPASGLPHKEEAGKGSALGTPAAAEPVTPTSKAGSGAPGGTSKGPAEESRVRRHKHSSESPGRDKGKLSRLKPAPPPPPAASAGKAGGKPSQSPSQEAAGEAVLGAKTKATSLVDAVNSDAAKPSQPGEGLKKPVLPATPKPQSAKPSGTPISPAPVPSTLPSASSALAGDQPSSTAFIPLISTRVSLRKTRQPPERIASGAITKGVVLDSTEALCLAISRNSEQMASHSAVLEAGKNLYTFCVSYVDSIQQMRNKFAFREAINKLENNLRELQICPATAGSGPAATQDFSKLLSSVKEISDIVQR
Chain of UniProt Q92915 (whole entry, looked up): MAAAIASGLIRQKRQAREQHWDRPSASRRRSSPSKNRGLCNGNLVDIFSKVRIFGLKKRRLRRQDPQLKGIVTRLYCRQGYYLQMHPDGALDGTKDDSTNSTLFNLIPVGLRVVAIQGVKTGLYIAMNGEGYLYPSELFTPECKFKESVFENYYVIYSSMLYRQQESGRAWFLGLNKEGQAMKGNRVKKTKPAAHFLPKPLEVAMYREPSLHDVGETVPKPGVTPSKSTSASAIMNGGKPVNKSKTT

SMILES = CCCN(O)N=Nc1ccc(S(=O)(=O)Nc2onc(C)c2C)cc1; assay = ABTS scavenging; conditions = 180 µg/mL; quantity = inhibition; result = 48.4%
SMILES = COc1cc(-c2cncc3c2CN(C)Cc2cc(N4CCNCC4)ccc2-3)cc(OC)c1OC; target or system = ROCK2 (Homo sapiens, UniProt O75116); assay = enzyme activity, inhibitor; conditions = 1 µM; quantity = remaining activity; result = 104%
SMILES = Cc1[nH]c(C)c(S(=O)(=O)Nc2ccc(C(F)(F)F)c(Cl)c2)c1C(=O)N(C)C; target or system = DRD3; assay = β-arrestin recruitment, agonist; conditions = 90 min; quantity = Emax; result = 103%
SMILES = O=C(N[C@H](COC(=O)[C@H](Cc1ccccc1)NC(=O)c1ccccc1)Cc1ccccc1)c1ccccc1; target or system = CTSL; assay = enzyme activity, inhibitor; conditions = 100 µM; quantity = remaining activity; result = 9.2%
SMILES = Nc1ncnc2occ(-c3ccc(NC(=O)Nc4cc(C(F)(F)F)ccc4F)cc3)c12; target or system = Tyrosine-protein kinase ABL1, phosphorylated (ABL1, Homo sapiens, UniProt P00519, E255K); assay = cell-free assay, inhibitor; conditions = 20 µM; quantity = remaining signal; result = 0.45%
SMILES = CC[C@H](C)[C@H](NC(=O)[C@@H](N)CC(C)C)C(=O)N1CCC[C@H]1C(=O)N1CCC[C@H]1C(=O)N[C@@H](Cc1ccccc1)C(=O)N[C@@H](Cc1c[nH]c2ccccc12)C(=O)N[C@@H](CCCCN)C(N)=O; target or system = CTSL; assay = enzyme activity, inhibitor; conditions = 100 µM; quantity = remaining activity; result = 93.1%
SMILES = CCCCC(=O)Nc1ccc(-c2ccc3ncn(CCC)c(=O)c3c2)cn1; target or system = MAST1 (Homo sapiens, UniProt Q9Y2H9); assay = binding, competition with immobilised ligand; conditions = 0.5 µM; quantity = remaining binding; result = 100%
SMILES = Oc1cc(O)c2c(c1)OC(c1cc(O)c(O)c(O)c1)C(O)C2 (stereo not shown); target or system = CTSL; assay = enzyme activity, inhibitor; conditions = 100 µM; quantity = remaining activity; result = 107%
SMILES = COc1cccc(-c2n[nH]c(SCc3ccccn3)n2)c1OC; system = male Sprague-Dawley rat, plasma; conditions = oral, 100 mg/kg, 2 h, single dose; quantity = concentration; result = 24800 ng/mL
SMILES = O=Cc1ccc(O)cc1; target or system = CTSL; assay = enzyme activity, inhibitor; conditions = 100 µM; quantity = remaining activity; result = 64.5%
SMILES = Cc1cc(NS(=O)(=O)c2ccc(N=NN(C)O)cc2)no1; assay = ABTS scavenging; conditions = 300 µg/mL; quantity = inhibition; result = 55%
SMILES = C=CC(=O)Nc1cccc(-c2noc([C@@]3(C)CCCc4sc(N)c(C#N)c43)n2)c1; target or system = GTPase KRas (KRAS, Homo sapiens, UniProt P01116, G12C); assay = enzyme activity, inhibitor; quantity = KI (inactivation); result = 9.75 µM and 7.29 µM and 8.86 µM
SMILES = CC(=O)Nc1ccc(Oc2ccc3c(c2)C(=O)N(c2cc(C)ccc2C)C3=O)cc1; target or system = Fibroblast growth factor 14 (Homo sapiens, UniProt Q92915); assay = binding, SPR; quantity = koff; result = 0.648 s⁻¹
SMILES = Cc1cc([C@@H](C)Nc2ccccc2C(=O)O)c2nc(N3CCC(F)(F)CC3)c(C#N)c(=O)n2c1; target or system = KIT (Homo sapiens, UniProt P10721, D816V); assay = binding, competition with immobilised ligand; conditions = 1 µM; quantity = remaining binding; result = 100%
SMILES = Nc1ccn([C@@H]2O[C@H](CO)[C@@H](O)C2(F)F)c(=O)n1; target or system = MCF7; assay = cell growth or viability, MTT; conditions = 0.3125 µg/mL, 24 h; quantity = viability; result = 90.4%
SMILES = CNc1ncc2c(/C=C/C(=O)N3CCC(OC)CC3)nn(Cc3cccc(C(F)(F)F)c3)c2n1; target or system = GRK5 (Homo sapiens, UniProt P34947); assay = enzyme activity, inhibitor, radiometric; conditions = 1 µM; quantity = remaining activity; result = 124%
SMILES = Cc1[nH]c(C)c(S(=O)(=O)Nc2ccc(C(F)(F)F)c(Cl)c2)c1C(=O)N1C[C@@H](F)[C@@H](F)C1; target or system = DRD3; assay = β-arrestin recruitment, agonist; conditions = 90 min; quantity = Emax; result = 104%
SMILES = C1=C/COCc2cc(ccc2OCCN2CCCC2)Nc2nccc(n2)-c2cccc(c2)COC/1; target or system = KIT V559D/V654A; assay = binding; conditions = 0.1 µM; quantity = remaining binding; result = 74%
SMILES = C=CC(=O)N1CCC(COCC(=O)N2CCN(c3nc(-c4cnc(N)nc4C(F)F)nc(N4CCOC[C@@H]4C)n3)CC2)CC1; target or system = KIT V559D/V654A; assay = binding, competition with immobilised ligand; conditions = 1 µM; quantity = remaining binding; result = 98%

For quick reference, copied from above:
SMILES = CC(=O)Nc1ccc(Oc2ccc3c(c2)C(=O)N(c2cc(C)ccc2C)C3=O)cc1; target or system = Fibroblast growth factor 14 (Homo sapiens, UniProt Q92915); assay = binding, SPR; quantity = koff; result = 0.648 s⁻¹
